# Measurements of several laboratories.
# Each line is one published result; not all experiments were run side by side. ± gives the spread as reported.
SMILES,cell line,test,setting,scale,endpoint,value
CSCC[C@H](NC(=O)[C@H](CC(C)C)NC(=O)CNC(=O)[C@H](Cc1ccccc1)NC(=O)[C@H](Cc1ccccc1)NC(=O)[C@H](CCC(N)=O)NC(=O)[C@H](CCC(N)=O)NC(=O)[C@@H]1CCCN1C(=O)[C@H](CCCCN)NC(=O)[C@@H]1CCCN1C(=O)[C@@H](N)CCCNC(=N)N)C(N)=O,rat mast cells,whole-cell patch-clamp capacitance,"50 µM, intracellular application",,degranulation rate,0.08 ± 0.01 pF/s
O=C(CCl)c1ccc(F)cc1,AP1-luc HEK293,"AP1 reporter gene, activator, luciferase",together with: FBS stimulation,baseline: control,fold increase,~4 fold
CNC(=O)c1cc(Oc2ccc(NC(=O)c3ccc(-c4ccc(OC(=O)CCC(=O)OC5OC6OC7(C)CCC8C(C)CCC(C5C)C68OO7)cc4)cn3)cc2)ccn1 (centres unmarked),Hep3B and LO2,"cell viability, MTT",72 h,baseline: IC50 LO2 over IC50 Hep3B,selectivity ratio,6.3
CCC(=O)CCC[C@H](C)C[C@H](NC(=O)[C@@H]1C[C@H](C)CN1C(=O)/C=C/[C@@H](C)CC)C(=O)N[C@H](C(=O)NC(C)(C)C(=O)N[C@@H](CC(C)C)C(=O)N[C@@H](CC(C)C)C(=O)NC(C)(C)C(=O)NC(C)(C)C(=O)NCCC(=O)N[C@@H](C)CN(C)C)[C@H](O)C(C)C,SUM185PE,"cell growth or viability, SRB",48 h,,GI50,2.1 nM
C#CCCCCOc1ccc2c(c1)CCCN2C(=O)CCl,H460 cell lysate,MS-ABPP,100 µM,reactivity ratio below 2,number of hyperreactive proteins,667 proteins
CN1CCc2[nH]c3ccc(Cl)cc3c2CC1,rat embryonic cortical neurons,Sholl analysis,"dose not given, DIV6",baseline: vehicle,dendritic arbor complexity,not toxic
Cc1ccc2ccc3ccc(C)nc3c2n1.O.[99Tc+].[C-]#[O+].[C-]#[O+].[C-]#[O+],HeLa,,together with: 3-methyladenine,,IC50 change,no effect
Cc1cc2c(C(=O)Cc3ccccc3)c(O)c(O)cc2c(O)c1-c1c(C)cc2c(C(=O)Cc3ccccc3)c(O)c(O)cc2c1O,H460,ATP-lite viability,72 h,,EC50,680 nM
C[C@H]1C(OCCCCCCCC[P+](c2ccccc2)(c2ccccc2)c2ccccc2)O[C@@H]2O[C@@]3(C)CCC4[C@H](C)CCC1[C@]42OO3 (some centres unmarked),J82,PI flow cytometry,"100 nM, 48 h",,G0/G1 phase cells,73.1%
CC1CCC2C(C)C(OC(=O)CCC(=O)N(CCCc3cn(-c4ccc(C#N)cc4)nn3)CCNc3ccnc4cc(Cl)ccc34)OC3OC4(C)CCC1C32OO4 (centres unmarked),CCRF-CEM,"cell growth or viability, resazurin","10 µM, 48 h",,inhibition,34%
CC(=O)Oc1cccc(/C=C/C(=O)Nc2nc(=O)n([C@@H]3O[C@H](C)[C@@H](OC(C)=O)[C@H]3OC(C)=O)cc2F)c1,BXPC-3,"cell viability, MTT",,baseline: NHDF fibroblasts over BXPC-3,selectivity index,2.98
CC[C@H](C)[C@H](NC(=O)[C@H](CC(N)=O)NC(=O)[C@H](CCCCN)NC(=O)[C@H](Cc1ccccc1)NC(=O)[C@H](Cc1ccccc1)NC(=O)[C@H](Cc1c[nH]cn1)NC(=O)[C@@H](NC(=O)[C@@H](NC(=O)[C@@H]1CCCN1C(=O)[C@@H](N)CC(N)=O)C(C)C)C(C)C)C(=O)N[C@H](C(=O)N[C@H](C(=O)N[C@@H](C)C(=O)O)[C@@H](C)O)C(C)C,T cell clone Hy.2E11,"T cell proliferation, agonist, [3H]thymidine incorporation","72 h, peptide-pulsed APC, together with: EBV-transformed B cells DR2/DQ6 as APC",,EC50,2800 nM
CC(=O)O[C@H]1C[C@@H](O)[C@H]2[C@@H]3CC[C@H]4CC(=O)C=C(CO)[C@]4(C)[C@H]3CC[C@@]21C,PMA-differentiated THP-1,"TNF-α production, ELISA","concentration not given, 4 h, together with: LPS 50 ng/mL",,inhibition,81 ± 2.5%
Cc1cccc(C)c1C(=O)OCC(=O)[C@H](CC(C)C)NC(=O)[C@H](C)NC(=O)[C@H](CCC(=O)O)NC(=O)OCc1ccccc1,HFF,inhibitor,"concentration not given, together with: Vibrio cholerae supernatant, MARTX toxin",,actin crosslinking,inhibited
CC(C)[C@@H]1NC(=O)[C@H](CCCCN)NC(=O)[C@@H](Cc2c[nH]c3ccccc23)NC(=O)[C@H](Cc2ccc(O)cc2)NC(=O)[C@@H](NC(=O)[C@H](N)Cc2ccc3ccccc3c2)CSSC[C@@H](C(=O)N[C@@H](Cc2ccc3ccccc3c2)C(N)=O)NC1=O,NCI-H1299-BRS-3,"antagonist, Western blot","concentration not given, together with: BA1",,ERK phosphorylation,inhibited
C[C@H](OP(=O)(O)O)[C@H]1NC(=O)[C@H](CCCNC(=N)N)NC(=O)[C@H](CCCNC(=N)N)NC(=O)[C@H](CCCNC(=N)N)NC(=O)[C@H](CCC(N)=O)NC(=O)[C@H](CCCNC(=N)N)NC(=O)[C@H](CCCNC(=N)N)NC(=O)[C@H](Cc2ccc3ccccc3c2)NC(=O)[C@@H]2CCCCN2C1=O,BT-474,refers to: PML and SMRT,2.5 and 5.0 µM,,protein level,increased
CC[C@H](C)[C@H](NC(C)=O)C(=O)N[C@@H](CC(N)=O)C(=O)N[C@@H](Cc1c[nH]c2ccccc12)C(=O)N[C@@H](CCC(=O)O)C(=O)NCC(=O)N[C@H](C(=O)N[C@@H](C)C(=O)N[C@@H](Cc1c[nH]cn1)C(=O)N[C@@H](CCSC)C(=O)N[C@@H](C)C(=O)N[C@@H](CCCCN)C(=O)N[C@@H](CCCCN)C(=O)N[C@@H](CC(C)C)C(=O)N[C@@H](CC(C)C)C(N)=O)[C@@H](C)CC,human erythrocytes,haemolysis,together with: Ni(II) 300 µM,,Hill coefficient,2.2 ± 0.1
CC12CCC3(CCC(=O)NCCCNc4ccnc5cc(Cl)ccc45)C(C)(OOC3(C)O1)O2,MOLT-4,"cell growth or viability, resazurin","10 µM, 48 h",,inhibition,16.3%
CC/C=C\C/C=C\C/C=C\C/C=C\C/C=C\C/C=C\CCC(=O)Nc1ccn(C2OC(CO)C(O)C2(F)F)c(=O)n1 (centres unmarked),SK-MEL-2,NCI60 screen,,,CC50,67600 nM
CC12OOC(C)(OO1)C2CCC(=O)OCCNc1ccnc2cc(Cl)ccc12 (centres unmarked),RPMI-8226,"cell growth or viability, resazurin","10 µM, 48 h",,inhibition,24.4%
CC1OC2OC3C4=C(OC3(C)C12O)C(=O)c1c(O)cccc1C4=O (centres unmarked),A549 and HFF,MTT,,baseline: CC50 HFF over EC50 A549,selectivity index,2
O=C(O)CCC(NP(=O)(O)OCCC[C@@H](NC(=O)CCC(NC(=O)CCCCCNC(=O)CCCCCNC(=O)c1ccc([18F])cc1)C(=O)O)C(=O)O)C(=O)O (some centres unmarked),CWR22Rv1,,2 h,,internalized fraction,91.3%
CNC(=O)c1cc(Oc2ccc(NC(=O)c3cc(-c4cccc(COC(=O)CCC(=O)OC5OC6OC7(C)CCC8C(C)CCC(C5C)C68OO7)c4)ccn3)cc2)ccn1 (centres unmarked),Huh-7 and LO2,"cell viability, MTT",72 h,baseline: IC50 LO2 over IC50 Huh-7,selectivity ratio,5.9
Cc1ccc(NC(=O)C2C(=O)C(c3ccccc3)c3ccc4c(c32)C(=O)c2ccccc2C4=O)cc1 (centres unmarked),MCF7,,,baseline: Vero IC50 over MCF7 IC50,selectivity index,1.1
CC12OOC(C)(OO1)C2CCC(=O)NCCNc1ccnc2cc(Cl)ccc12 (centres unmarked),MOLT-4,"cell growth or viability, resazurin","10 µM, 48 h",,inhibition,33.6%
CNC(=O)c1cc(Oc2ccc(NC(=O)c3ccc(-c4cccc(COC(=O)CCC(=O)OC5OC6OC7(C)CCC8C(C)CCC(C5C)C68OO7)c4)cn3)cc2)ccn1 (centres unmarked),Hep3B and LO2,"cell viability, MTT",72 h,baseline: IC50 LO2 over IC50 Hep3B,selectivity ratio,> 18.7
CC(C)CC(O)(CC(C)C)c1cn(C(=O)N2CCCC2)nn1,mouse T-cells,"N-terminal labeled proteins, N-terminal enrichment proteomics, refers to: NDRG1","1 nM, 6 h",baseline: DMSO,SILAC ratio,9.05 ± 1.5
CSCC[C@H](NC(=O)[C@H](CCC(=O)O)NC(=O)CN)C(=O)N[C@@H](Cc1ccccc1)C(=O)O,HaCaT,CCK-8,"10 µg/mL, 72 h, 0.4 % serum",,viability,109 ± 1.47%
COCCOCCOCCOc1ccc(-n2cc(CCCN(CCNc3ccnc4cc(Cl)ccc34)C(=O)CCC(=O)OC3OC4OC5(C)CCC6C(C)CCC(C3C)C46OO5)nn2)cc1 (centres unmarked),RPMI-8226,"cell growth or viability, resazurin","10 µM, 48 h",,inhibition,23.9%
CC[C@H](C)[C@H](NC(C)=O)C(=O)N[C@@H](CC(N)=O)C(=O)N[C@@H](Cc1c[nH]c2ccccc12)C(=O)N[C@@H](Cc1c[nH]cn1)C(=O)NCC(=O)N[C@H](C(=O)N[C@@H](C)C(=O)N[C@@H](Cc1c[nH]cn1)C(=O)N[C@@H](CCSC)C(=O)N[C@@H](C)C(=O)N[C@@H](CCCCN)C(=O)N[C@@H](CCCCN)C(=O)N[C@@H](CC(C)C)C(=O)N[C@@H](CC(C)C)C(N)=O)[C@@H](C)CC,human erythrocytes,hemolysis,no metal added,,Hill coefficient,1.4 ± 0.1
O=C1C=CC(=O)c2c(O)ccc(O)c21,HuCC-A1,"cytotoxicity, MTT",,baseline: IC50 MRC5 over IC50 HuCC-A1,selectivity ratio,4.14
CCCCCCCCCCCCCC(=O)NCC(=O)N[C@@H](CCCNC(=N)N)C(=O)N[C@@H](Cc1c[nH]c2ccccc12)C(=O)N[C@@H](CCCCN)C(=O)N[C@H](C(=O)N[C@@H](Cc1ccccc1)C(=O)N[C@@H](CCCCN)C(=O)N[C@@H](CCCCN)C(=O)N[C@H](C(=O)N[C@@H](CCC(=O)O)C(=O)N[C@@H](CCCCN)C(=O)N[C@H](C(=O)NCC(=O)N[C@@H](CCC(N)=O)C(=O)N[C@@H](CC(N)=O)C(=O)N[C@H](C(=O)N[C@@H](CCCNC(=N)N)C(=O)N[C@@H](CC(=O)O)C(=O)NCC(=O)N[C@H](C(=O)N[C@H](C(=O)N[C@@H](CCCCN)C(=O)N[C@@H](C)C(=O)NCC(=O)N1CCC[C@H]1C(=O)N[C@@H](C)C(=O)N[C@H](C(=O)N[C@@H](C)C(=O)N[C@H](C(=O)N[C@H](C(=O)NCC(=O)N[C@@H](CCC(N)=O)C(=O)N[C@@H](C)C(=O)N[C@@H](C)C(=O)N[C@H](C(=O)N[C@H](C(N)=O)[C@@H](C)CC)[C@@H](C)O)C(C)C)C(C)C)C(C)C)C(C)C)[C@@H](C)CC)[C@@H](C)CC)C(C)C)[C@@H](C)CC)[C@@H](C)CC,K562/MDR,DCFH-DA fluorescence,"2 and 4 µM, 12 h",baseline: PBS control,ROS level,increased

# Some of these lines once more:
SMILES,cell line,test,setting,scale,endpoint,value
C#CCCCCOc1ccc2c(c1)CCCN2C(=O)CCl,H460 cell lysate,MS-ABPP,100 µM,reactivity ratio below 2,number of hyperreactive proteins,667 proteins
Cc1cc2c(C(=O)Cc3ccccc3)c(O)c(O)cc2c(O)c1-c1c(C)cc2c(C(=O)Cc3ccccc3)c(O)c(O)cc2c1O,H460,ATP-lite viability,72 h,,EC50,680 nM
C[C@H]1C(OCCCCCCCC[P+](c2ccccc2)(c2ccccc2)c2ccccc2)O[C@@H]2O[C@@]3(C)CCC4[C@H](C)CCC1[C@]42OO3 (some centres unmarked),J82,PI flow cytometry,"100 nM, 48 h",,G0/G1 phase cells,73.1%
